Measured values gathered from unrelated publications.
Each numbered part is a random draw from the data of one study; scales do not carry over between parts. Changes are numbered by the printed parent chain.

Study 1
Target: Histone acetyltransferase KAT6A, both winged helices, GST fusion (KAT6A, Homo sapiens, UniProt Q92794, residues 1-181)
Technique: protein binding microarray
Form: double-stranded DNA, one strand shown
Matrix: in vitro
Tested at: not given
Notes: 8-mer, flanks averaged, mean of 2 arrays, mostly near background
Relative to: not given
Direction: higher = stronger binding
Target sequence (chain): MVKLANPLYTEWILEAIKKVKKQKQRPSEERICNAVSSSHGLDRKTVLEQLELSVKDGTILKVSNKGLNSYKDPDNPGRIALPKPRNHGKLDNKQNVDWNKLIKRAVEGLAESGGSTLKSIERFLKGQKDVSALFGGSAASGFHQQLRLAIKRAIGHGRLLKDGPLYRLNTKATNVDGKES
Oligonucleotide | E-score
AAGGGATA | -0.167
CTCTTGGC | -0.0752
AGAGTGAC | -0.123
CATTATAG | 0.0031
GACCTCCA | -0.017
GGTTTGCA | -0.0424
CTGTAGGA | -0.0859
ACTACCGC | 0.227
CTACCGAC | 0.0923
ATTTACTA | -0.0562
ACGAGCTC | 0.0299
CCAAGAAC | -0.171
ATGGCCGG | 0.104
CTGAAACA | -0.101
CGGGTTGA | 0.185
CCCACACA | -0.148
GCGTCCCC | 0.0287
TCTGCGAA | -0.0999
TAAATAAA | 0.0119
CCGATTCC | 0.228
ATTCTGTA | -0.169
ACTCTCTA | -0.276
CAGAGGTA | -0.194
CACTGGCG | 0.0627
CGTCTTAG | 0.0486

Study 2
Target: ABI1, truncated, D143A, DHFR fusion (Arabidopsis thaliana)
Technique: DHFR PCA, deep sequencing
Matrix: yeast
Notes: methotrexate growth selection, single substitutions
Together with: (+)-ABA 2500 µM
Relative to: wild-type fitted maximum
Direction: higher = stronger binding
Starting sequence: PYL1, truncated, DHFR fusion (Arabidopsis thaliana); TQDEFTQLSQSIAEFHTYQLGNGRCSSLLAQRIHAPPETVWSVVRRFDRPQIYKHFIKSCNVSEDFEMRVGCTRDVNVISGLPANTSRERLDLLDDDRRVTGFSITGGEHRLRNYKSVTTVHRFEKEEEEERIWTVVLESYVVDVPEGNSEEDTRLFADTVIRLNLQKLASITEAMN
Substitution | relative binding score [%]
N61F | 99
L164W | 92.9
L94Q | 86.1
E174P | 91
E151R | 95.1
S140H | 55.5
T160W | 88.5
R45A | 88
R98Q | 98.3
K126F | 98.1
C25L | 89.7
S11C | 100
R132P | 111
E127P | 104
V118R | 106
T120F | 8.44
E38G | 96.6
R98D | 96.4
Y53E | 10
R45F | 32.7
V76L | 93.5
V145Y | 76.1
M68H | 99.9
A84Q | 22.6
V143F | 66.6

Study 3
Target: Interferon regulatory factor 3, full length, phosphomimetic (IRF3, Homo sapiens, UniProt Q14653, residues 1-427, S386D/S396D/S398D/S402D/T404D/S405D)
Sequence of UniProt Q14653 (whole entry, unmodified, looked up): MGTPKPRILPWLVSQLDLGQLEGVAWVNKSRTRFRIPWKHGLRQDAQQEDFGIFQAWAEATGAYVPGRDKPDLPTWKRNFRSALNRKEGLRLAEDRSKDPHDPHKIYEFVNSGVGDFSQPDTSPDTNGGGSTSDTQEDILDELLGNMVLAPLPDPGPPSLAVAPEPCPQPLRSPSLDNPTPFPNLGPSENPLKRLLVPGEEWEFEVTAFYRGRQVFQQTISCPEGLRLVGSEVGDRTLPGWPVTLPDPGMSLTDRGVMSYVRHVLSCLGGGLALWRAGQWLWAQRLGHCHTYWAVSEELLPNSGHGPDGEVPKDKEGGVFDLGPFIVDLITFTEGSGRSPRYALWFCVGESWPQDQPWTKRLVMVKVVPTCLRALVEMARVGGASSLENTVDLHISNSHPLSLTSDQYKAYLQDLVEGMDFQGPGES
Technique: protein-binding microarray
Form: double-stranded DNA, one strand shown
Matrix: in vitro
Tested at: 2540 nM top
Notes: 60-bp whole probe
Together with: salmon DNA 0.4 mg/ml
Relative to: random background probes
Direction: higher = stronger binding
Shared flanks, not repeated: GCCTAGCAC … GTCTTGATTCGCTTGACGCTGCTG
Oligonucleotide | fitted relative affinity [z-score]
GACGGTCTCGGTCTCGGGACGTGCTAG | 1.52
GACGGTATCTACTATCGGGACGTGCTA | 0.396
GACGGACTGGGGAATCGGGACGTGCTA | -0.751
TTAGAACTGAGTCACGATTAGTGCTAG | -0.315
TTTACTTTCTACGTCTGATTGTGCTAG | 3.98
GACGATTTCGGGTTCCGAGACGTGCTA | 2.33
CTCACTCTAATCTCACTCTGTGTGCTA | 0.524
GACGGTCTCCTTATCCTGATGTGCTAG | 2.78
GACGAACTGGGGTAGCGAGACGTGCTA | -0.521
TTAGGACTGTGTATCGGTTAGTGCTAG | 0.97
GTCGGTATCGGGTTTCGGGACGTGCTA | 3.97
GACGGACTGGACATTCGGGACGTGCTA | -0.417
GACGGACTGGACACTGGGGACGTGCTA | -0.682
GACGGACTGCACTTTCGGGACGTGCTA | 0.612
GACGATATTAGTTTCGAGACGTGCTAG | 2.9
GACGGTTTCCGTTCCCTGACGTGCTAG | 7.74
TTAGGTTTCGTGTATCGGTTAGTGCTA | 2.92
AACGGTTTCGGTCTCGGGACGTGCTAG | 8.67
TTTGGTATCGGGTTTCGGTTAGTGCTA | 3.98
TCACTTTCAGTTTTCCTACTGTGCTAG | 5.72
TTAGGTATCGGACTGGATTAGTGCTAG | 1.27
GAAGATTTCAGTCTCGAGACGTGCTAG | 1.99
TCATGATTGGTTGAACAACTGTGCTAG | -0.0734
GACGTACTGCTTTTCCTGACGTGCTAG | 0.166
TGGAGTCTCTGTTCTTTTCAGTGCTAG | 0.775

Study 4
Target: RING finger protein unkempt homolog, zinc fingers 1-6, GST-SBP tag (UNK, Homo sapiens, UniProt Q9C0B0, residues 30-357)
Sequence of UniProt Q9C0B0 (30-357, looked up): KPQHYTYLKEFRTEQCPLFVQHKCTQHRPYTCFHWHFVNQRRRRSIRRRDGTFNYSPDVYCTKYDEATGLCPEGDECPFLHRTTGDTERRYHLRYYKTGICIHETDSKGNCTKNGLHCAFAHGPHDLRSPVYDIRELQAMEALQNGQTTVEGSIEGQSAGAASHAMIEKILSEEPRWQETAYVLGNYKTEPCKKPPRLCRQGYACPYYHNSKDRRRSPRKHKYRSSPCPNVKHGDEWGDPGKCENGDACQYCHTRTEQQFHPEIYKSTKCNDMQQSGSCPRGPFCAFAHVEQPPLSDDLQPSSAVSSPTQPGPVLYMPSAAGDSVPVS
Technique: RNA Bind-n-Seq
Form: RNA
Matrix: in vitro
Tested at: not given
Notes: RNA with constant flanks, ends assumed
Relative to: input RNA pool
Direction: higher = stronger binding
Oligonucleotide | bound/input enrichment [ratio]
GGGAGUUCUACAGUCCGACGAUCUCACACUCACAUUGUGGCAAACAGUCAACAUGGAAGUAGACCGGCUCUGCUGAUUUGAAAUUCCGAUUUUUUUUUAAUUAUGUACUGGGGACAGGUUUUUGUCGCUUUACAUUGCUUCCUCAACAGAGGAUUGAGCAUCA | 0.237
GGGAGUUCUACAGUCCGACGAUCAGGCACUGGGAGGCUGUUUCAGGAAAGUGAGACUCAAGAGGAAGACAGAAAAGGUUGUAACGCCGAGGAAGUGAGACUGGUGAAUUGGUUUGAUUUUUUUCACAUCUAGAUGGCUGUCAUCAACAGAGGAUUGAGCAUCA | 0.567
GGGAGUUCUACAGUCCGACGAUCAAUAAGCUACAUAAUUCCGAAGUUAUAUUUCCUCUACCAUUUCCGUAAUUCUUACUCCAUUUCCGAAAACUUUGUUAGGCCAAAGACAAAUAGUAGGCAAGAUGGCACAGGGCAUGAAGUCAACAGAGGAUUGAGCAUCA | 0.459
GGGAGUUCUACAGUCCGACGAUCUACAAGGUCCAGGAAAAUAUAUAGACUACAGAUGUCCCAGGCUUUGAGUAAGCGCUGAUUUCCGGAGAUGGGUAAUUAACCCAAGUUCUCCAACAUUUUUCACAUAAGAAAUGUGUUUUGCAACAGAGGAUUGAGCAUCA | 0.181
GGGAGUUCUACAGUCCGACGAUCCCAAUUGACAACGGUUCAAAAAUCACCAACUACCUUUUAGAGUGGGAUGAGGGAAAAAGAAACCGUGGUUUCAGACAGUGCUUCUUCGGGAGCCAGAAGCACUGCAAGUUGACAAAGCUUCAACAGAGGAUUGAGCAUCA | 0.249
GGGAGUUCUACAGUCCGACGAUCUCCUCACUUACUGGAAGUGGGAAGAGAAAUAGGAUAAGAAGUUCUCUGCCAUGGAGGCAAAACCGUUGGAAAGGGUACAGUGAAAACAUGAGGAAGCUCAGAAAGACUCAUGAUAUUCCACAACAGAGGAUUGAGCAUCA | 0.208
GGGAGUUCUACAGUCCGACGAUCAUGUGCCUGUACUUAAAAAAAAAAAAAUGGUACACCAGAAAAGGACUGGCAGUCUACUACCACCGUCAAACUUCACCUUAAUUUCGACAUGACUUUUGGAAGCAGGAAGAAAGCUACAAACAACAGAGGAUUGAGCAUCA | 0.147
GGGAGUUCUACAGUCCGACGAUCUUUCCACUUGAUGUCAACACGCAGAAGGGGGUGAAAGGGACGCGUGACAGAUUCAGAAAUCCGCACAUUUGUGAAUGCUCGAUGCCCUGUGAGCUUGAGAAGAGGGAUCCAGAGUGGUGACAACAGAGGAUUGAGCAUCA | 0.102
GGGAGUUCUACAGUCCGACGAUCAACCUCACAGAUGAAACAGGAGUAUCUGCUGUUCAGUUUGGAAACUCCUCUACGUCAGUAUCCGCUACGUUAGCUGCCUUAGCUGAAGCUUCUGCCCCAUUGUCCAAUUCUUCAGAAACUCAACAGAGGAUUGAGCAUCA | 0.133
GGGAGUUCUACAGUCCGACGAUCAUAUGCCUAUGGCUACUGGACACAUACCCAUAUAAUCCCCCUAUCUGUUUUGUUAAGCCUACCCGUUCAAUGACUAUUAAAACAGGAAAGCAUGUUGAUGCAAAUGGGAAGAUAUAUCUUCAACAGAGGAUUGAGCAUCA | 0.123
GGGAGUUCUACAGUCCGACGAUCACAGUAGGAAAGGCCAAGGGCAAAUUGUGGCUCUUUGGAAAGAAGCCAAAGGGCCCAGCACCCGAAGAUUUCAGUCAUCUGCCACCAGAACAGAGACGUAAAAAACUACAGCAGCGCAUUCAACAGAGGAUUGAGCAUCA | 0.175

Study 5
Target: CCNA1, cyclin fold, Cln2 fusion (human)
Technique: yeast growth competition, sequencing
Matrix: yeast
Notes: weak parent motif
Relative to: not given
Direction: higher = stronger binding
Starting sequence: FZR1 docking peptide (human); QDYERRLLRQIVI
Substitution | normalised enrichment score
R9A | 0.21
L7A | 0.394
E4A | -0.0605
D2A | 0.193
L8A | 0.114
I11A | 0.591
Q10A | 0.224
R5K L8F | 0.449
R5A L7A | 0.289
L8F | 0.215

Study 6
Target: Sal-like protein 4, full length isoform B (SALL4, Homo sapiens, UniProt Q9UJQ4-2, residues 1-616)
Technique: universal PBM
Form: double-stranded DNA, one strand shown
Matrix: in vitro
Tested at: not given
Notes: 8-mer, flanks averaged, mean of replicates
Direction: higher = stronger binding
Target sequence (chain): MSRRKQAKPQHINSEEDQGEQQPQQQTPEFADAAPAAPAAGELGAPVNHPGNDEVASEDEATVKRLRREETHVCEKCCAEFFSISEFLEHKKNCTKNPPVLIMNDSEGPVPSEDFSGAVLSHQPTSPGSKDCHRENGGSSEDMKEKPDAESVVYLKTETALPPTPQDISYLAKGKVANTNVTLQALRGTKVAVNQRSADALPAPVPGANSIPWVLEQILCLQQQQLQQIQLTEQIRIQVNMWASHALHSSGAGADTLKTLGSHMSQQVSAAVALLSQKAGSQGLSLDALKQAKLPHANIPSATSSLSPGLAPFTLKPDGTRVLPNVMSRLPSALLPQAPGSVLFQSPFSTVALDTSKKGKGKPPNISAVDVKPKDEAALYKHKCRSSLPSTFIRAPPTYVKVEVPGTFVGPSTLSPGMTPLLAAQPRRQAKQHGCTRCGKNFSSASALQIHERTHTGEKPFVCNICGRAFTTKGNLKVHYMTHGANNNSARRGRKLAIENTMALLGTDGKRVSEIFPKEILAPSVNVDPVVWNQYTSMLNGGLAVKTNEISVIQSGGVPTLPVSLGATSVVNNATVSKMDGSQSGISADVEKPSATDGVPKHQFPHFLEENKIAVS
Oligonucleotide | E-score
AAGACCGA | -0.068
AGAGATCG | -0.164
TCAATCAA | 0.159
ATGAGCGC | -0.0412
AAGGCTCG | -0.232
AGCACCCC | -0.315
ATGTCATG | 0.212
TCCACCAA | -0.07
ATGCAGAC | 0.00551
TAGTTGAA | 0.244
ACTGAAGC | -0.0365
GGGGTTGA | -0.134
CATTTTCC | 0.196
ATAGACTG | 0.082
AGCCAACC | -0.132
AACAGGGA | 0.0279
CACCGAGG | -0.281
GAGAAGGA | -0.0947
GACCCATC | -0.145

Repeated from above (study 1):
Oligonucleotide | E-score
CTGAAACA | -0.101
CGGGTTGA | 0.185
CCCACACA | -0.148
GCGTCCCC | 0.0287
TCTGCGAA | -0.0999
TAAATAAA | 0.0119
CCGATTCC | 0.228
ATTCTGTA | -0.169
ACTCTCTA | -0.276
CAGAGGTA | -0.194
